{"data": "Assay results gathered from unrelated publications", "observed": "metabolic stability", "species": "human", "note": "Lines come from different studies, so protocols differ."}
{"SMILES": "CCN(CC)CCOc1ccc(-c2nnn(Cc3ccc(OC)cc3)c2N)cc1", "matrix": "plasma", "half-life [h]": "> 6.21"}
{"SMILES": "CCc1nnc(-c2c(OC)cc(-c3cnc4cc(-c5cnn(C)c5)ccn34)cc2OC)o1", "matrix": "liver microsomes", "half-life [h]": "> 2.48"}
{"SMILES": "COc1cc2c(cc1NC(=O)c1cncn1C)C[C@H]1[C@H]3CCCC[C@@]23CCN1C", "matrix": "liver microsomes", "half-life [h]": 0.555}
{"SMILES": "[2H]c1nc([2H])c(-c2nc([2H])n3c2C([2H])([2H])N=C(c2ccccn2)c2cc(C#C)ccc2-3)o1", "matrix": "liver microsomes", "half-life [h]": 20.4}
{"SMILES": "CCCCCn1ccc(C(=O)NC(C)(C)c2ccc(CNC(C)=O)cc2)n1", "matrix": "liver microsomes", "half-life [h]": 1.43}
{"SMILES": "NC1CCN(C(=O)Oc2cccc([C@H]3CCC[C@@]4(C3)OOC3(O4)C4CC5CC(C4)CC3C5)c2)C1 (some centres unmarked)", "matrix": "liver microsomes", "half-life [h]": 1.26}
{"SMILES": "C[C@]12CC[C@H]3[C@@H](CCC4=CC(=O)CC[C@@]43C)[C@@H]1CC[C@@H]2O", "matrix": "hepatocytes", "concentration": "1 µM", "half-life [h]": 0.335}
{"SMILES": "c1cc(OCCN2CCOCC2)cc([C@H]2CCC[C@@]3(C2)OOC2(O3)C3CC4CC(C3)CC2C4)c1 (mixture of isomers)", "matrix": "liver microsomes", "half-life [h]": 0.4}
{"SMILES": "Cc1ccc(CNC(=O)c2ccn3c(-c4ccc(C#N)cc4)cnc3c2)cn1", "matrix": "liver microsomes", "half-life [h]": 1.02}
{"SMILES": "c1cc([C@H]2CCC[C@@]3(C2)OOC2(O3)C3CC4CC(C3)CC2C4)ccc1OCCN1CCOCC1 (mixture of isomers)", "matrix": "liver microsomes", "half-life [h]": 1.08}
{"SMILES": "CNC(=O)C[C@H](Cc1ccc(F)cc1)NC(=O)[C@@H](Cc1ccc(Cl)cc1Cl)NC(=O)[C@H](N)Cc1ccccc1C#N", "matrix": "liver microsomes", "concentration": "1 µM", "half-life [h]": 0.0167}
{"note": "A few entries again:"}
{"SMILES": "CCc1nnc(-c2c(OC)cc(-c3cnc4cc(-c5cnn(C)c5)ccn34)cc2OC)o1", "matrix": "liver microsomes", "half-life [h]": "> 2.48"}
